Results from different studies.
Lines come from different studies, so protocols differ.
CA9: Carbonic anhydrase 9 (CA9, Homo sapiens, UniProt Q16790)
PPO3: PPO3 (Agaricus bisporus, UniProt C7FF04)
Chain of UniProt C7FF04 (whole entry, looked up): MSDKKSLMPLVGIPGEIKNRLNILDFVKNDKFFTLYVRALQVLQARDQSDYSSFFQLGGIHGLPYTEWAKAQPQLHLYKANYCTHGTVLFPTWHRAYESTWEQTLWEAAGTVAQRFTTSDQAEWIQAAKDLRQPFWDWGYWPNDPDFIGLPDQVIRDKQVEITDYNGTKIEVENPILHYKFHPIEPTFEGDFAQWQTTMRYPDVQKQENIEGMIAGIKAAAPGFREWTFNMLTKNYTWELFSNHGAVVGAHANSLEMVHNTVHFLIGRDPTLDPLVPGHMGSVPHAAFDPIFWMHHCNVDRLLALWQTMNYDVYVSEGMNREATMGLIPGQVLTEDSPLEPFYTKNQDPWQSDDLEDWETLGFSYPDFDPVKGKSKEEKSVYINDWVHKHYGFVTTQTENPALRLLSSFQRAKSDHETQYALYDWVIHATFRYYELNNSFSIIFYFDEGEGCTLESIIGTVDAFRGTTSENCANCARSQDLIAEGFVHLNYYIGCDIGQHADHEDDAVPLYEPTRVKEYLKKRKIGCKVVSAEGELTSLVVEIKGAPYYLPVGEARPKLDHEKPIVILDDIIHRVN
rep papain-like protease: Replicase polyprotein 1ab, papain-like protease (rep, Porcine epidemic diarrhea virus, UniProt P0C6Y4)
AMY2: Pancreatic alpha-amylase (AMY2, Sus scrofa, UniProt P00690)
Chain of UniProt P00690 (whole entry, looked up): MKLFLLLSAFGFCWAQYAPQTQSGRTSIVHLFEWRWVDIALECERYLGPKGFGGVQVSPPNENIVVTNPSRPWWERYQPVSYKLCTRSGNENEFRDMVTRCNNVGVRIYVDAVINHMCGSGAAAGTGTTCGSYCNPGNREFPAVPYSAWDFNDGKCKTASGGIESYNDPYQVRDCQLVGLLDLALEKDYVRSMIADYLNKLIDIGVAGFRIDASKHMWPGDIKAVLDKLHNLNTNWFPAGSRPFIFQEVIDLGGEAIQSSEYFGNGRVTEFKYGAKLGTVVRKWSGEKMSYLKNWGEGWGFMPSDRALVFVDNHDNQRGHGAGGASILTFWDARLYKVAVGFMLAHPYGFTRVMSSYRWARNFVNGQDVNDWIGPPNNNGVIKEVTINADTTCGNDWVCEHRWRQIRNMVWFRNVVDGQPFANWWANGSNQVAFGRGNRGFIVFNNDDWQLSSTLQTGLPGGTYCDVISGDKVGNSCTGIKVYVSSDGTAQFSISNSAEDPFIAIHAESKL
PIK3CD: Phosphatidylinositol 4,5-bisphosphate 3-kinase catalytic subunit delta isoform (PIK3CD, Homo sapiens, UniProt O00329)
Chain of UniProt O00329 (whole entry, looked up): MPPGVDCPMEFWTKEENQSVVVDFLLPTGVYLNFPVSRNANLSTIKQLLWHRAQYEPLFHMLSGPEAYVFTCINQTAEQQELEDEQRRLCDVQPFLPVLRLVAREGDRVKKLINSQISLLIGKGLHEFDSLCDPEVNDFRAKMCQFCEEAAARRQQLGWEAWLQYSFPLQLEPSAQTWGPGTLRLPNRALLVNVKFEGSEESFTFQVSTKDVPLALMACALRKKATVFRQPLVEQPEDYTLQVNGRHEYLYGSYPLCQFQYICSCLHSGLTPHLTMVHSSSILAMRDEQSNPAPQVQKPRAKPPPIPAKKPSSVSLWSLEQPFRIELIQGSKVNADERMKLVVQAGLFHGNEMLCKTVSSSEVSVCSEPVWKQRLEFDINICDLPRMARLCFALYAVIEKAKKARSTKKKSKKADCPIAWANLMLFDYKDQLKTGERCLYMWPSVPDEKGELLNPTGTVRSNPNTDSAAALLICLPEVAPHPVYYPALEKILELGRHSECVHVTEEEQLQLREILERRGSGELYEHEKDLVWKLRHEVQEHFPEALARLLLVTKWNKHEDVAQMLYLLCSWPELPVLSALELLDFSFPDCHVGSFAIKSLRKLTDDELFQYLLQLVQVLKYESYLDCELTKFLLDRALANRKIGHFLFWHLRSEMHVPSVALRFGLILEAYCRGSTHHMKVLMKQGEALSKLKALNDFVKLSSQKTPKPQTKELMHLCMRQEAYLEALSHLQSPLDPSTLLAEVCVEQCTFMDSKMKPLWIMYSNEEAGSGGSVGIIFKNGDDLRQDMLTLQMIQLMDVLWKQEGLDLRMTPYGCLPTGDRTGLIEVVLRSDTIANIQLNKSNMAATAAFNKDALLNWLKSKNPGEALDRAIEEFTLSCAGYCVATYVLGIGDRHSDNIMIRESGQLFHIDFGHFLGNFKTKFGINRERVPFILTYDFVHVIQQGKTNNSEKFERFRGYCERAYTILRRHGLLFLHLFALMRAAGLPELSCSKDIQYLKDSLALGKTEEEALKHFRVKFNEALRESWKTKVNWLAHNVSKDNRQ
PIK3CA: Phosphatidylinositol 4,5-bisphosphate 3-kinase catalytic subunit alpha isoform (PIK3CA, Homo sapiens, UniProt P42336)
Chain of UniProt P42336 (whole entry, looked up): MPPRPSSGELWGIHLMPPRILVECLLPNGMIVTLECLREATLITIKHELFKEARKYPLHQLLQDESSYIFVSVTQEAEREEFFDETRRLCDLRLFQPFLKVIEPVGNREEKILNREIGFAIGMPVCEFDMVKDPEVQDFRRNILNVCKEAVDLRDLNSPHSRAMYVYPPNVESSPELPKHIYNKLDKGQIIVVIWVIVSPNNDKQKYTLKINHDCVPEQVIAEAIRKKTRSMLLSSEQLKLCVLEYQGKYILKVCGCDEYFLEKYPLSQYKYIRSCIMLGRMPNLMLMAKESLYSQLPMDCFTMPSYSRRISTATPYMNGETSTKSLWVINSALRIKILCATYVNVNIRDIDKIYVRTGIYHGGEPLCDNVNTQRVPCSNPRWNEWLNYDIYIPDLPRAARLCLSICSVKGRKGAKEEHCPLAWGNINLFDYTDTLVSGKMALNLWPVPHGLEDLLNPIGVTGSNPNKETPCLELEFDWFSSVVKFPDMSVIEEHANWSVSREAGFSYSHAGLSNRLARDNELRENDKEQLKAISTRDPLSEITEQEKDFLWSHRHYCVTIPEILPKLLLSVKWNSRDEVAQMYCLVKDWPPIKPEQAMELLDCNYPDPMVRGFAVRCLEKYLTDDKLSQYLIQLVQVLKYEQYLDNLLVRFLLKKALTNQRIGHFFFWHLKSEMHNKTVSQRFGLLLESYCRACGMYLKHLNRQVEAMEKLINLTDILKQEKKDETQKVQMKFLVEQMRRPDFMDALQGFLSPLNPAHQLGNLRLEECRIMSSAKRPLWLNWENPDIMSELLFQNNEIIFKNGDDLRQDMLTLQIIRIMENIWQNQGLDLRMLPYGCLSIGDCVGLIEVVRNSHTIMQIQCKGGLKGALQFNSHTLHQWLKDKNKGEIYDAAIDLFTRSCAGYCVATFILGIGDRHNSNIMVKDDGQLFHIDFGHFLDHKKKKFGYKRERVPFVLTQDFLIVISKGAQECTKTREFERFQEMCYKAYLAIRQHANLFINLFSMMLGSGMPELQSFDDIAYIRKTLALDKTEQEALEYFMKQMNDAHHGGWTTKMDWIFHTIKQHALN
CHEK1: Serine/threonine-protein kinase Chk1 (CHEK1, Homo sapiens, UniProt O14757)
Chain of UniProt O14757 (whole entry, looked up): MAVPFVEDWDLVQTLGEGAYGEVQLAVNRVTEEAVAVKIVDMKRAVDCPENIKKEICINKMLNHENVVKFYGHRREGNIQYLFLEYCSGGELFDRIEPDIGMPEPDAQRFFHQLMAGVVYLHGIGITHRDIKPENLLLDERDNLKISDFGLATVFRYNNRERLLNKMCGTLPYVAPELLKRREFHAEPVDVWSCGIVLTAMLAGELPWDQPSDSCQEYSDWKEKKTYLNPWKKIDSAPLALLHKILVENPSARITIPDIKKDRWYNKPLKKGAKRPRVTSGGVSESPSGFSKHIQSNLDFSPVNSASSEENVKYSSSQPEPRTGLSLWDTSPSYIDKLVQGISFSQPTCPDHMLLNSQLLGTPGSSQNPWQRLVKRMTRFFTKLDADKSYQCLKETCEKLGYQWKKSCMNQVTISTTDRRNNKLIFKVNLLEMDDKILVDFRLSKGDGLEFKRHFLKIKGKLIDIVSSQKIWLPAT
DYRK1A: Dual specificity tyrosine-phosphorylation-regulated kinase 1A (DYRK1A, Homo sapiens, UniProt Q13627)
FLT3 ITD: Receptor-type tyrosine-protein kinase FLT3 (FLT3, Homo sapiens, UniProt P36888, ITD)
rep main protease: Replicase polyprotein 1ab, main protease (rep, Porcine epidemic diarrhea virus, UniProt P0C6Y4)
Chain of UniProt O35435 (whole entry, looked up): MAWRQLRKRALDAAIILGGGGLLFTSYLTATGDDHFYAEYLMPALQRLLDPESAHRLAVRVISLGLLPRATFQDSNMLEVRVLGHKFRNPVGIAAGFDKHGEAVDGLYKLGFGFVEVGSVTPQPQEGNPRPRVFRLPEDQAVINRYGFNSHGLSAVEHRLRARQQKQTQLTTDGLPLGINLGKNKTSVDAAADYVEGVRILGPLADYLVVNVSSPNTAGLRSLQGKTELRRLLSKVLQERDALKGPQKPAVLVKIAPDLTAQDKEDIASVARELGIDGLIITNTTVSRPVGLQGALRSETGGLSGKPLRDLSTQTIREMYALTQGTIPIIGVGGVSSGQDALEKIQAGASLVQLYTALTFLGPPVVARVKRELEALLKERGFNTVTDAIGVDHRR

CN(C(=O)c1ccc(Cl)c(S(N)(=O)=O)c1)C(CNC(=O)OC(C)(C)C)C1CC1 (centres unmarked)  IC50 (CA9; enzyme activity, inhibitor): 68 nM
Cc1ccc(-n2ncc(C(=O)NC[C@@]3(C4CC4)NC(=O)NC3=O)n2)cc1  IC50 (A disintegrin and metalloproteinase with thrombospondin motifs 7 (Homo sapiens, UniProt Q9UKP4); enzyme activity, inhibitor, FRET): < 50 nM
Cc1ccc(NC(=O)CSc2nc3ccccc3cc2C=Nn2c(S)nnc2-c2ccccc2)cc1  IC50 (PPO3; enzyme activity, inhibitor): 20900 nM
NS(=O)(=O)c1cccc(NC(=O)C2Cc3ccccc3CN2C(=O)c2ccco2)c1 (centres unmarked)  IC50 (CA9; enzyme activity, inhibitor): 1780 nM
O=C(NCc1cc(O)c(O)c(Br)c1)c1ccco1  IC50 (rep papain-like protease; enzyme activity, inhibitor, FRET): 8550 nM
FC(F)(F)c1ccccc1/C=N/N=C/c1ccccc1C(F)(F)F  IC50 (AMY2; enzyme activity, inhibitor): 164000 nM
COc1ccc(C(=O)NCc2cc(Br)c(OC)c(OC)c2)cc1  IC50 (rep papain-like protease; enzyme activity, inhibitor, FRET): 4490 nM
Cc1cccc(N=C2C(=O)N(Cc3cccc(Cl)c3)c3ccccc32)c1  IC50 (PIK3CD; enzyme activity, inhibitor, ADP detection): 51.9 nM
COc1cc2ncnc(N(C)c3ccc4c(c3)/C(=C/c3ccccc3)C(=O)N4C)c2cc1OC (mixture of isomers)  IC50 (PIK3CA; enzyme activity, inhibitor, ADP detection): 304 nM
Cc1ccc2oc(=O)cc(NCCO)c2c1  IC50 (Alpha-1B adrenergic receptor (ADRA1B, Homo sapiens, UniProt P35368); calcium signal, antagonist): 37200 nM
COc1cc(N)c(Cl)cc1NC(=O)Nc1cnc(C#N)cn1  IC50 (CHEK1; enzyme activity, inhibitor): 3.93 nM
c1cnn2ncc(-c3ccnc(N4CCNCC4)n3)c2c1  IC50 (DYRK1A; cell-free assay, TR-FRET): 589 nM
N#Cc1cnc(NC(=O)Nc2cc(O)[nH]n2)cn1  IC50 (CHEK1; enzyme activity, inhibitor): > 10000 nM
CN(C)C(=O)c1cc2cnc(Nc3ccc4c(=O)cc(N5CCNCC5)oc4c3)nc2n1C1CCCC1  IC50 (PIK3CD; enzyme activity, inhibitor, radiometric): 6050 nM
COc1ccc(CNC(=S)NC(C)(C)C)cc1  IC50 (Beta-2 adrenergic receptor (ADRB2, Homo sapiens, UniProt P07550); calcium signal, antagonist, fluorescence): > 100000 nM
O=C(NCCN1CCCC1)c1ccc(-c2nc3ccc4[nH]ncc4c3c3c2CCCC3)c(F)c1  IC50 (FLT3 ITD; enzyme activity, inhibitor): 41 nM
CC(C)(C)OC(=O)N1CCC(Oc2ccc(C#N)cc2NC(=O)Nc2cnc(C#N)cn2)C1 (centres unmarked)  IC50 (CHEK1; enzyme activity, inhibitor): 1530 nM
CC(C)NCCCC[C@H](NC(=O)[C@H]1CCC(=O)N[C@@H](Cc2ccccc2)C(=O)N[C@@H](Cc2ccc(O)cc2)C(=O)N[C@@H](CCCCNC(C)C)C(=O)N[C@H](CCCNC(=N)N)C(=O)N[C@@H](Cc2ccc3ccccc3c2)C(=O)NCC(=O)N1)C(N)=O  IC50 (C-X-C chemokine receptor type 4 (Mus musculus, UniProt P70658); ligand displacement in cells, flow cytometry): 17.5 nM
COC(=O)Cc1ccc2c(c1)NC(=O)c1ccc(-c3cc[nH]c(=O)c3)cc1N2  IC50 (CHEK1; enzyme activity, inhibitor): 8.64 nM
COc1cccc(/C=N/N=C/c2cccc(OC)c2)c1  IC50 (AMY2; enzyme activity, inhibitor): 334000 nM
O=C1C(=Nc2ccc(Cl)cc2Br)c2ccccc2N1Cc1ccc([N+](=O)[O-])cc1  IC50 (PIK3CA; enzyme activity, inhibitor, ADP detection): 34.5 nM
COc1cc(-c2ccc3c(c2)Nc2ccc(NC(=O)c4cn[nH]c4)cc2NC3=O)ccc1[N+](=O)[O-]  IC50 (CHEK1; enzyme activity, inhibitor): 5.48 nM
CN1CCN(C(=O)c2ccc(-c3nc4ccc5[nH]ncc5c4c4c3CCCC4)cc2)CC1  IC50 (FLT3 ITD; enzyme activity, inhibitor): > 1000 nM
COc1cc(-c2ccc3c(c2)Nc2ccc(C(C)(C)C(=O)Nc4ccc(N5CCOCC5)cc4)cc2NC3=O)ccc1[N+](=O)[O-]  IC50 (CHEK1; enzyme activity, inhibitor): 5.26 nM
CC(c1ccc(S(N)(=O)=O)cc1)N(C)C(=O)c1ccc(-n2cc(-c3ccc(Cl)cc3)cn2)cc1 (centres unmarked)  IC50 (CA9; enzyme activity, inhibitor): 62 nM
O=C(O)c1ccc(S(=O)(=O)N(Cc2ccc(OC(F)(F)F)cc2)c2ncc(C(F)(F)F)cc2Cl)cc1  IC50 (Transient receptor potential cation channel subfamily M member 8 (TRPM8, Homo sapiens, UniProt Q7Z2W7); ion current, antagonist, patch clamp): 5 nM
Cc1ccccc1C(=O)NCc1cc(O)c(O)c(Br)c1  IC50 (rep main protease; enzyme activity, inhibitor, FRET): 9350 nM
COc1cc(N=C2C(=O)Nc3ccccc32)cc(OC)c1  IC50 (PIK3CA; enzyme activity, inhibitor, ADP detection): 53.5 nM
Cc1cc(C(=O)N2CCCCC2C)ccc1NC(=O)c1nccc2c(S(N)(=O)=O)cccc12 (centres unmarked)  IC50 (CA9; enzyme activity, inhibitor): 85 nM
O=C(O)CCCOc1cccc(CNC(=O)C#Cc2cn(Cc3ccc(C(=O)O)cc3)c(=O)[nH]c2=O)c1  IC50 (Collagenase 3 (MMP13, Homo sapiens, UniProt P45452); enzyme activity, inhibitor): 5.78 nM
FC(F)(F)C1CCN(c2nccc(-c3cnn4ncccc34)n2)CC1  IC50 (DYRK1A; cell-free assay, TR-FRET): 479 nM
Cn1nc2c(=O)n(C3CC3)ccc2c1[C@](O)(c1cnc(C(F)(F)F)c(Cl)c1)C(F)(F)F  IC50 (Dihydroorotate dehydrogenase (quinone), mitochondrial (Dhodh, Mus musculus, UniProt O35435); enzyme activity, inhibitor, absorbance): 7100 nM
COC(=O)Cc1ccc2c(c1)NC(=O)c1ccc(-c3ccc(OC)cc3)cc1N2  IC50 (CHEK1; enzyme activity, inhibitor): > 10000 nM
Clc1ccc(C2(c3ccc(-c4cn[nH]c4)cc3)CCNCC2)cc1  IC50 (Serine/threonine-protein kinase LATS2 (LATS2, Homo sapiens, UniProt Q9NRM7); enzyme activity, inhibitor, radiometric): 58 nM
CN(C)C1CCN(c2nccc(-c3cnn4ncccc34)n2)CC1  IC50 (DYRK1A; cell-free assay, TR-FRET): 631 nM
Nc1ccc(/C=N/N=C/c2ccc(N)cc2)cc1  IC50 (AMY2; enzyme activity, inhibitor): 266000 nM
O=C1Nc2ccccc2/C1=N/c1ccccc1Br  IC50 (PIK3CD; enzyme activity, inhibitor, ADP detection): 611 nM
Cc1nc(Nc2ccc3c(c2)/C(=C/c2ccccc2)C(=O)N3Cc2ccccc2)c2ccccc2n1  IC50 (Phosphatidylinositol 4,5-bisphosphate 3-kinase catalytic subunit gamma isoform (PIK3CG, Homo sapiens, UniProt P48736); enzyme activity, inhibitor, ADP detection): 218 nM
Cn1c(C(=O)NCc2cc(O)c(O)c(Br)c2)cc2ccccc21  IC50 (rep main protease; enzyme activity, inhibitor, FRET): 5640 nM
Cc1cc(C(=O)Oc2ccc(NC(=O)c3sccc3C)cc2)ccc1S(N)(=O)=O  IC50 (CA9; enzyme activity, inhibitor): 238 nM
O=C(CSc1nc2ccccc2cc1C=Nn1c(S)nnc1-c1ccccc1)Nc1ccccc1Cl  IC50 (PPO3; enzyme activity, inhibitor): 28200 nM
